Measured values gathered from unrelated publications.
A part holds a random share of what one study measured. Changes are numbered by the printed parent chain.

Sample 1 — technique: protein-binding microarray; form: double-stranded DNA, one strand shown; matrix: in vitro; tested at: 2540 nM top; notes: 60-bp whole probe; added: salmon DNA 0.4 mg/ml; baseline: random background probes; direction: higher = stronger binding; shared flanks, not repeated: GCCTAGCAC … GTCTTGATTCGCTTGACGCTGCTG
Target: Interferon regulatory factor 3, full length, phosphomimetic (IRF3, Homo sapiens, UniProt Q14653, residues 1-427, S386D/S396D/S398D/S402D/T404D/S405D)
Target sequence (chain): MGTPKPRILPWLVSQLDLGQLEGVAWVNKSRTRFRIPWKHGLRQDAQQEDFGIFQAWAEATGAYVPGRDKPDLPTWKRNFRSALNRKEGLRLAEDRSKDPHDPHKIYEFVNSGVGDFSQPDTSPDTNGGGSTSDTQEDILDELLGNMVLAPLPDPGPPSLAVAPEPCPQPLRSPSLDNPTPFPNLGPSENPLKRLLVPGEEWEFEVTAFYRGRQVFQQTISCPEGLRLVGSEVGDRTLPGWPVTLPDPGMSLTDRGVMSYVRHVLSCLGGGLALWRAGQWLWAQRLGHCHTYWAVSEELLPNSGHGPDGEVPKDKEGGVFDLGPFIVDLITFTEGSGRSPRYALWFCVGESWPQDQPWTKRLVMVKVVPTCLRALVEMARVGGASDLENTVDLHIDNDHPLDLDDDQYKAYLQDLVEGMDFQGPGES
For `GACGATCACAGTCTCGAGACGTGCTAG`, “fitted relative affinity” read 0.399 z-score.
Under “fitted relative affinity”, `GACGGGTTCGGGACTGGGGACGTGCTA` is recorded as -0.257 z-score.
`TCAGCTTTGCCTTCAGCACTGTGCTAG`: “fitted relative affinity” -0.185 z-score.
`TTAGATTTCAGTCTCGTTTAGTGCTAG` — result for “fitted relative affinity”: 2.65 z-score.
Under “fitted relative affinity”, `TTAGGTATCGGGTATTGGTTAGTGCTA` is recorded as 0.967 z-score.
`CAGTTTCTCTTTCCTTCTTGGTGCTAG` — result for “fitted relative affinity”: 10.1 z-score.
Under “fitted relative affinity”, `TTAGATTTCCTTATCCTTTAGTGCTAG` is recorded as 4.67 z-score.

Sample 2 — target: CCNE1, cyclin fold, Cln2 fusion (human); technique: yeast growth competition, sequencing; matrix: yeast; notes: weak parent motif; baseline: not given; direction: higher = stronger binding
Starting sequence: ORC1 docking peptide (human); PRARKRLELGNLG
`R2V`: “normalised enrichment score” 0.105.
For `E8G`, “normalised enrichment score” read 0.137.
Under “normalised enrichment score”, `G13E` is recorded as 0.612.
`R6G`: “normalised enrichment score” 0.864.
`A3P` — result for “normalised enrichment score”: 0.429.
`L7M`: “normalised enrichment score” 0.346.
For `K5D`, “normalised enrichment score” read 0.35.
For `R2F`, “normalised enrichment score” read 0.56.

Sample 3 — technique: universal PBM; form: double-stranded DNA, one strand shown; matrix: in vitro; tested at: 600 nM; direction: higher = stronger binding
Target: Sal-like protein 4, full length isoform A (SALL4, Homo sapiens, UniProt Q9UJQ4, residues 1-1053)
Sequence of UniProt Q9UJQ4 (whole entry, looked up): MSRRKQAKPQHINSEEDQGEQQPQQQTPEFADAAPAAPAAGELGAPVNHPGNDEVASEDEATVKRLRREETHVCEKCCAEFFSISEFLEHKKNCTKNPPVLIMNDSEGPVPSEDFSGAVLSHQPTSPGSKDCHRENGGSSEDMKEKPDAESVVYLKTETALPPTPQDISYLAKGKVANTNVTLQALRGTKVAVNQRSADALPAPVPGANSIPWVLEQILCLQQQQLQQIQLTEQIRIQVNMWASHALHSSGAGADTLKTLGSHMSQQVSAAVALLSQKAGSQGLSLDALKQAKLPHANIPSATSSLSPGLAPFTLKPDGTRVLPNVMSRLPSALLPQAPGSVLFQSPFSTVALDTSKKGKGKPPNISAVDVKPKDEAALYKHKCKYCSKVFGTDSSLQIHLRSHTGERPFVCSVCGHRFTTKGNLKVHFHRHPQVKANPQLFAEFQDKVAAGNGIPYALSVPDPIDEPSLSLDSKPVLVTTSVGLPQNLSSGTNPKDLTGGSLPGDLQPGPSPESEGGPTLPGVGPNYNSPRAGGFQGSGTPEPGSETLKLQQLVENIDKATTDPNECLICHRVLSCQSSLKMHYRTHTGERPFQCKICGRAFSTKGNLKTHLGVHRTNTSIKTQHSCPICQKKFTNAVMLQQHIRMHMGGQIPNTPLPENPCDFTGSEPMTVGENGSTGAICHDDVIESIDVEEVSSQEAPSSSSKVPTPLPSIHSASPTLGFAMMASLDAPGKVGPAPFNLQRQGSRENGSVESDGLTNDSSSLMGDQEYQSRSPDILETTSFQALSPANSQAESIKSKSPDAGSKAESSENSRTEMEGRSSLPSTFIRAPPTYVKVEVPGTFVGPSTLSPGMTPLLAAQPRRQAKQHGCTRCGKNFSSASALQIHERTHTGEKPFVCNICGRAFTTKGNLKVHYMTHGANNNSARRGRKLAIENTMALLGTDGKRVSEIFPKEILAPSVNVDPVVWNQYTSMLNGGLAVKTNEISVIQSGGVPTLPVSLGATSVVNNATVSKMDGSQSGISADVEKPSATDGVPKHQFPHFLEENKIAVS
Notes: 8-mer, flanks averaged, mean of replicates
`ACTGGGCT` has an E-score of -0.248.
The E-score of `AGGCTGCG` is reported as -0.203.
`GCATATGA` gave an E-score of 0.199.
For `TGTAAAAA`, the E-score was 0.326.
For `ACCCAGAA`, the E-score was 0.0218.

Other studies, line by line
With `PhoQ, residues 284 288 289 292 302 303 SLSVQF` the fold induction was 2.89 (PhoP, residues 12 14 15 18 19 AGCRL (Escherichia coli, UniProt P23836); Sort-seq, item: YFP reporter; E. coli; PhoQ-PhoP variant library, added: 10 µM Mg2+; baseline: high Mg2+ state, higher = stronger signaling).

Some of these lines once more (sample 3):
For `ACCCAGAA`, the E-score was 0.0218.
`ACTGGGCT` has an E-score of -0.248.
